Measurements of several laboratories.
Each numbered part is a random draw from the data of one study; scales do not carry over between parts. Positions count from the first letter of the parent shown.

Series 1
Target: Ras GTPase-activating protein-binding protein 1, full length (G3BP1, Homo sapiens, UniProt Q13283)
Sequence of UniProt Q13283 (whole entry, looked up): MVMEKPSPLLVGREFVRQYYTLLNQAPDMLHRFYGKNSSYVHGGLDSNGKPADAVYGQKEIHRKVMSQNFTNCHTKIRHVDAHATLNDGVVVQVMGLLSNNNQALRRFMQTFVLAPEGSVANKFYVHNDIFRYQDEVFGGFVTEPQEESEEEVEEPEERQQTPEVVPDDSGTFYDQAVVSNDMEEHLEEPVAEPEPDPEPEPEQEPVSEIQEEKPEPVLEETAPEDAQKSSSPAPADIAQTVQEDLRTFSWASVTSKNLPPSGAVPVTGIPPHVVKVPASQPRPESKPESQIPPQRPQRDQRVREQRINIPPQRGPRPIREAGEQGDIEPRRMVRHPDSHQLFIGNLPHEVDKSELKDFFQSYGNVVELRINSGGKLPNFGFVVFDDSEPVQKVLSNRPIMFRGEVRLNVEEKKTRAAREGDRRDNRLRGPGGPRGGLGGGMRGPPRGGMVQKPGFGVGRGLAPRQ
Technique: RNA Bind-n-Seq
Molecule type: RNA
Sample: in vitro
Concentration: 200 nM
Notes: whole 134-nt RNA, ends assumed
Added: 150 mM KCl
Baseline: input library
Direction: higher = stronger binding
All sequences stand within: GGGAGUUCUACAGUCCGACGAUC … UGGAAUUCUCGGGUGUCAAGG
Oligonucleotide	log2 enrichment
AAGUCCUGUGCUACACAUCGUAUGUACCGAAUCAAAUUUAAAUUUAAAUUUUUAAAAAAGUAUUAUGUUACGCCGUUCGGAUCUGCACUU	-1.53
UGUGCUACACAUCGUAUGUACCGAAUCGGGGUUUUUUUGGGGUUUUUGGGGAAAAAAAGGGGAAAGUAUUAUGUUACGCCGUUCGGAUCU	-0.709
GCAGGAAGUAAAAACAAAUGGAAAUGCUUCGGAUAGUGGCAGGGGUGGGGGUUGCAAAGGAAAGGGUGGGAUGGGAGUGGGUAAAGAGUU	0.81
CAAGUCCUGUGCUACACAUCGUAUGUACCGAAUCGGGCCCGGGGCCCGGGGCCCGGAAAGUAUUAUGUUACGCCGUUCGGAUCUGCACUU	-0.782
AAGUCCUGUGCUACACAUCGUAUGUACCGAAUCGGGAAAGGGAAAAAGGGAAAGGGAAAGUAUUAUGUUACGCCGUUCGGAUCUGCACUU	0.131
UAACUUUAGAGGAGGAUCUGAUGGAUAUGGCAGUGGACGUGGAUUUGGGGAUGGCUAUAAUGGGUAUGGAGGAGGACCUGGACGUGGCAA	0.118
CAAGUCCUGUGCUACACAUCGUAUGUACCGAAUCGGGAGGGUUUUUGGGUUUGGGAAAGUAUUAUGUUACGCCGUUCGGAUCUGCACUUC	0.325
UGGCUUCCUUCUUUCUAUUCCCCGCCUGCCUUCCAUGGUAGAGGCCAGUGACUUUGAGAUUAAUGGACUGGACUUCAUGGUAAGACCCUC	0.434
AAGUCCUGUGCUACACAUCGUAUGUACCGAAUCGGCCCCGGGGCCCCGGGCCCCGGAAAGUAUUAUGUUACGCCGUUCGGAUCUGCACUU	-1.08
UCCUCAAGUCCUGUGCUACACAUCGUAUGUACCGAAUCGGGUGGGUGGGUGGAAAGUAUUAUGUUACGCCGUUCGGAUCUGCACUUCCAG	1.64
AAGUCCUGUGCUACACAUCGUAUGUACCGAAUCGGAAAAAAAGGUUUUUUUGGUGGAAAGUAUUAUGUUACGCCGUUCGGAUCUGCACUU	-1.64
AAAAUUUCCAGUACCUUUGUCACAAUCCUAACACAUUAUCGGGAGCAGUGUCUUCCAUAAUGUAUAAAGAACAAGGUAGUUUUUACCUAC	-1.11
UGGCCCUGGUGGCAUGCGGGGAGGAAGAGGUGGCCUCAUGCAUCGUGGUGGUCCCGGUGGAAUGUUCAGAGGUGGCCGUGGUGGAGACAG	0.145
UCAAGUCCUGUGCUACACAUCGUAUGUACCGAAUCGGGAGGGAAAAAGGGUGGGAAAGUAUUAUGUUACGCCGUUCGGAUCUGCACUUCC	0.912

Series 2
Target: Sal-like protein 4, full length isoform A (SALL4, Homo sapiens, UniProt Q9UJQ4, residues 1-1053)
Sequence of UniProt Q9UJQ4 (whole entry, looked up): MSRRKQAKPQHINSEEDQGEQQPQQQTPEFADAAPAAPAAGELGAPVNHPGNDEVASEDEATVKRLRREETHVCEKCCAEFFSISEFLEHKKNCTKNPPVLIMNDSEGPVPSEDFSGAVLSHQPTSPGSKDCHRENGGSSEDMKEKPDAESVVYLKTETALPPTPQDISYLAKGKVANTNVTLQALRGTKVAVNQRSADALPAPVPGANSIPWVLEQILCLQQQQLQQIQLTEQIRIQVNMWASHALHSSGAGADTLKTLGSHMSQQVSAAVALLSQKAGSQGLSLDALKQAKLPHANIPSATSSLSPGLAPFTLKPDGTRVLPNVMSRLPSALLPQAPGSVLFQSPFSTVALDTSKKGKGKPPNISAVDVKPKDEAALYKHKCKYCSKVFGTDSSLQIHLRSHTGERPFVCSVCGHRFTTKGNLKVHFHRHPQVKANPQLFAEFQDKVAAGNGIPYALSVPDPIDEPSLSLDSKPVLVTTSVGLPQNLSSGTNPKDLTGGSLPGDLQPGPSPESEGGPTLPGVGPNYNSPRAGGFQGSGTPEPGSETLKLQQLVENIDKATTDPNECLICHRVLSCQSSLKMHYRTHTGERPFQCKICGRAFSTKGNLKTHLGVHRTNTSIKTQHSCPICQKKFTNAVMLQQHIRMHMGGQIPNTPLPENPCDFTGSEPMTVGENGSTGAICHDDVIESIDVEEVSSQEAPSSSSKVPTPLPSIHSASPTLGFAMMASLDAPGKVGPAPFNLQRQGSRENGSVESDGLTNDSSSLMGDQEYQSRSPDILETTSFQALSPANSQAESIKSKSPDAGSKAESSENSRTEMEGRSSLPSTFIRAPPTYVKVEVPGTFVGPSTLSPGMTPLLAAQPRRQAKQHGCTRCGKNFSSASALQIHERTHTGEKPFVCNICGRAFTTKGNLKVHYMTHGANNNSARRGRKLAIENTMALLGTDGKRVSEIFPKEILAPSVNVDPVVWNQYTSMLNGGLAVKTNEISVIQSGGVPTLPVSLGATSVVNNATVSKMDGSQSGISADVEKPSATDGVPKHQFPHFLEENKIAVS
Technique: universal PBM
Molecule type: double-stranded DNA, one strand shown
Sample: in vitro
Concentration: 600 nM
Notes: 8-mer, flanks averaged, mean of replicates
Direction: higher = stronger binding
Oligonucleotide	E-score
CGGAACCG	-0.329
CGTTCACC	-0.213
CCACTAGA	-0.114
GAAGCAAA	0.158
TGTAAACA	0.293
AAGTAACA	0.185
ATACTCGG	0.0598
CCTGTCAG	-0.116
CGCTTGGA	-0.166
GCGATGAA	0.017
CCAATTAA	0.195
GGGCGAAC	-0.186
CGGCAAAC	-0.206
CAAATGTA	0.301
CGCTTGAC	-0.172
ACACGGAG	-0.0435
ACACTTGA	0.0338
TCTTGTAA	0.288
AATCCACT	0.0279
CTACAGCA	-0.0937
AGACTGTA	0.11

Series 3
Substance: PhoQ, residues 284 288 289 292 302 303 ASTSDA
Technique: Sort-seq
Refers to: YFP reporter
Sample: E. coli
Notes: PhoQ-PhoP variant library
Added: 10 µM Mg2+
Baseline: high Mg2+ state
Direction: higher = stronger signaling
target	fold induction
PhoP, residues 12 14 15 18 19 STHWV (Escherichia coli, UniProt P23836)	12.6
PhoP, residues 12 14 15 18 19 QYCSL (Escherichia coli, UniProt P23836)	9.44
PhoP, residues 12 14 15 18 19 SHWTV (Escherichia coli, UniProt P23836)	1.96

Series 4
Target: ABI1, truncated, D143A, DHFR fusion (Arabidopsis thaliana)
Technique: DHFR PCA, deep sequencing
Sample: yeast
Notes: methotrexate growth selection, single substitutions
Added: (+)-ABA 1.4 µM
Baseline: wild-type fitted maximum
Direction: higher = stronger binding
Starting sequence: PYL1, truncated, DHFR fusion (Arabidopsis thaliana); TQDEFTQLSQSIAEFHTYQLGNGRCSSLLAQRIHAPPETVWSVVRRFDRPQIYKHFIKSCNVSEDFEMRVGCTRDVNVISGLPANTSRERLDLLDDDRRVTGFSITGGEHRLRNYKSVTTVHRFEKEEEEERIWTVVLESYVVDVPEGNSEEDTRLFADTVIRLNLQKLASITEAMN
Variant	relative binding score
E127I	51.1%
V142S	41%
R74G	4.11%
A30S	66.5%
K54A	4.86%
A158T	63.7%
F124K	2.76%
A170T	14.6%

Excerpt of the above (series 1):
Oligonucleotide	log2 enrichment
GCAGGAAGUAAAAACAAAUGGAAAUGCUUCGGAUAGUGGCAGGGGUGGGGGUUGCAAAGGAAAGGGUGGGAUGGGAGUGGGUAAAGAGUU	0.81
CAAGUCCUGUGCUACACAUCGUAUGUACCGAAUCGGGCCCGGGGCCCGGGGCCCGGAAAGUAUUAUGUUACGCCGUUCGGAUCUGCACUU	-0.782
AAGUCCUGUGCUACACAUCGUAUGUACCGAAUCGGGAAAGGGAAAAAGGGAAAGGGAAAGUAUUAUGUUACGCCGUUCGGAUCUGCACUU	0.131
UAACUUUAGAGGAGGAUCUGAUGGAUAUGGCAGUGGACGUGGAUUUGGGGAUGGCUAUAAUGGGUAUGGAGGAGGACCUGGACGUGGCAA	0.118
CAAGUCCUGUGCUACACAUCGUAUGUACCGAAUCGGGAGGGUUUUUGGGUUUGGGAAAGUAUUAUGUUACGCCGUUCGGAUCUGCACUUC	0.325
UGGCUUCCUUCUUUCUAUUCCCCGCCUGCCUUCCAUGGUAGAGGCCAGUGACUUUGAGAUUAAUGGACUGGACUUCAUGGUAAGACCCUC	0.434
AAGUCCUGUGCUACACAUCGUAUGUACCGAAUCGGCCCCGGGGCCCCGGGCCCCGGAAAGUAUUAUGUUACGCCGUUCGGAUCUGCACUU	-1.08
